Experimental data gathered from unrelated publications.
Parts stem from different laboratories: compare values within a part only. Positions count from the first letter of the parent shown.

Block 1 — method: RNA Bind-n-Seq; molecule type: RNA; medium: in vitro; concentration: 365 nM; relative to: no-protein control; direction: higher = stronger binding
Target: RNA binding protein fox-1 homolog 2, RRM domain, GST-SBP tag (RBFOX2, Homo sapiens, UniProt O43251-10, residues 100-194)
Notes: natural RNA segment, single round, ends assumed
Under “RBNS enrichment (R)”, `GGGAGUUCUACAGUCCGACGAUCGCUUUUUUGGGGUAAUUUGAAUUAAUUUUUUAAUGAUUGGGGUUCCAUUUGACUGUUUGCAUUGAGAUUGCAAUGUGCGCAAUUUUUUUUGUAGUUGUGGCAUCUUGUUGUGGAAUUCUCGGGUGCCAA` is recorded as 0.987.
`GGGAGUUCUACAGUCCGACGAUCGUGAUAAUGGUUGGAAGGAUGUGGGAUUAUGAAACUGCUUUUGUUUUGUUGGGUUUUUUUUUUUUUGUUUUGUUUUGUUUUUAGAAAACUUGUGAAUGAAAAUGAACCCAUGGAAUUCUCGGGUGCCAA` — result for “RBNS enrichment (R)”: 0.541.
`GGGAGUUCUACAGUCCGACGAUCUGUUUGAUUCAACACUGCACUAAGGGGGAAAUGUUCCAUUGAAUAAAAGAGCAGUGUGGUUUUCCGGGUCCGUUUCUUUUCUUUUAAAACCUUUUUCCUGACCAUCAGCAUGGAAUUCUCGGGUGCCAA` — result for “RBNS enrichment (R)”: 0.965.
For `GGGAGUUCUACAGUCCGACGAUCGCCUCUGCUCCUGCUCCUGCCUGCAUGUUCUCUCUGUUGUUGGAGCCUGGAGCCUUGCUCUCUGGGCACAGAGGGGUCCACUCUCCUGCCUGCUGGGACCUAUGGAAGGGUGGAAUUCUCGGGUGCCAA`, “RBNS enrichment (R)” read 8.98.
`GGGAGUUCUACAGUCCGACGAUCCACUCCCCUACAAAAGAUGGAGCUUAAUGGAGAAAUUGCAACUUUCAUUAAAAAACAAAUUCAGAUGAAAUAUCAGUAACUGUCUUGGACAGUGCUGAAAUCAGGUGGUUUGGAAUUCUCGGGUGCCAA` — result for “RBNS enrichment (R)”: 0.481.
Under “RBNS enrichment (R)”, `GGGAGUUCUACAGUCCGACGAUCCGGCAGCCACUCUGCGUCUCUCACCUGCCAGGCCUGCGUGGCCUUAGGGUUGUUCCUGUUCUUUUAGGUUGGGCGGUGGGUCUGUGUCCUGGUGUUGAGUUUCUGCAAAUUGGAAUUCUCGGGUGCCAA` is recorded as 0.413.
For `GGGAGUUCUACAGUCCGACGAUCGCCAGGAUGAGGACACGCACUGCCCUCCAUAGACACAGAUGAAGGGGUGGGGGUCAUUCAGCUCGAAUGGGUCCCAGAUGCUCACUUGGCCUUUCCCUGCAGGAUGAGUGUGGAAUUCUCGGGUGCCAA`, “RBNS enrichment (R)” read 0.557.
`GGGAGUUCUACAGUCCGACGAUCAUAUAUAAGAGGCACACAUGUCCACGUGGAGGGCACAGUCAGGGAGAGUUGGAAAUGCAAAAUUGCCAAAUAGCACAAACAGUGAAUGUUUUCCAGUUAUACGAGAUGCCUGGAAUUCUCGGGUGCCAA`: “RBNS enrichment (R)” 1.59.

Block 2 — method: protein-binding microarray; molecule type: double-stranded DNA, one strand shown; medium: in vitro; concentration: 940 nM top; notes: 60-bp whole probe; together with: salmon DNA 0.4 mg/ml; relative to: random background probes; direction: higher = stronger binding; all sequences stand within: GCCTAGCAC … GTCTTGATTCGCTTGACGCTGCTG
Target: Interferon regulatory factor 5, full length, phosphomimetic (IRF5, Homo sapiens, UniProt Q13568-2, residues 1-514, S451D/S453D/S456D/S462D)
Under “fitted relative affinity”, `TCATCTTCCCTTTTAAGACTGTGCTAG` is recorded as 1.02 z-score.
For `GGTCTTCTGGGCTGTTTAGTCGTGCTA`, “fitted relative affinity” read -0.276 z-score.
For `AAATATATACAAACTAAGGATGTGCTA`, “fitted relative affinity” read 0.112 z-score.
For `TTGGATCTCAGTTTCGATTAGTGCTAG`, “fitted relative affinity” read 7.98 z-score.
`CCTTTTATGGTTTTTTTTTAGTGCTAG`: “fitted relative affinity” 1.42 z-score.
Under “fitted relative affinity”, `GACGGTATCCTTTTCCTGGCGTGCTAG` is recorded as 0.902 z-score.
Under “fitted relative affinity”, `TCATAATTTACTTTGGTACTGTGCTAG` is recorded as 0.376 z-score.
For `GACGATATTAGTATCGAGACGTGCTAG`, “fitted relative affinity” read 2.57 z-score.
`TTATGTATCCTTTTCCTTTAGTGCTAG` — result for “fitted relative affinity”: 1.13 z-score.
`TTTCTTCTAGACTTCTCCATGTGCTAG` — result for “fitted relative affinity”: 3.18 z-score.
For `TTAGGTCGCCTACTGCTTTAGTGCTAG`, “fitted relative affinity” read -0.326 z-score.
For `TTAGATCTCAGTATCGATGAGTGCTAG`, “fitted relative affinity” read 3.71 z-score.
For `TTTTCATTGTTTTTCATCATGTGCTAG`, “fitted relative affinity” read 2 z-score.
Under “fitted relative affinity”, `TTAGATTTCGGGTATCGAGTAGTGCTA` is recorded as 2.04 z-score.
For `TTAGGTTTCCTTTTCCTTCAGTGCTAG`, “fitted relative affinity” read 2.11 z-score.
For `TCATCTCTAATTTTGAGACTGTGCTAG`, “fitted relative affinity” read 0.0836 z-score.
`GACGAACTGGGGATTCGAGACGTGCTA`: “fitted relative affinity” -0.357 z-score.
For `TCAGGTATTTTTTTCTAACTGTGCTAG`, “fitted relative affinity” read 0.57 z-score.
For `GACGGACTGGACTATCCGGACGTGCTA`, “fitted relative affinity” read -0.402 z-score.

Block 3 — target: CCNA1, cyclin fold, Cln2 fusion (human); method: yeast growth competition, sequencing; medium: yeast; notes: weak parent motif; relative to: not given; direction: higher = stronger binding
Starting sequence: BRCA2 docking peptide (human); PSIKRNLLNEFDR; partner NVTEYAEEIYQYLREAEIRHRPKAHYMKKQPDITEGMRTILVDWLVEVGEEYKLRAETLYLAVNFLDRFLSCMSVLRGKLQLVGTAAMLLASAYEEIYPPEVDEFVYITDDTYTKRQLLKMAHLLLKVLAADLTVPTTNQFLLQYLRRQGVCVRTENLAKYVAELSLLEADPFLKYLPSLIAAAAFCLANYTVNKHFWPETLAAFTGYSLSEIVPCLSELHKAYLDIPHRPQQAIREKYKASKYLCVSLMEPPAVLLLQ
For `I3V`, “normalised enrichment score” read 0.521.
Under “normalised enrichment score”, `P1S` is recorded as 0.494.
For `K4P`, “normalised enrichment score” read 0.0675.
For `D12C`, “normalised enrichment score” read 0.474.
`N6H` — result for “normalised enrichment score”: 0.598.
Under “normalised enrichment score”, `N6T` is recorded as 0.324.
`K4S` — result for “normalised enrichment score”: 0.238.
For `N6G`, “normalised enrichment score” read -0.715.
`N6A`: “normalised enrichment score” 0.461.
`S2N`: “normalised enrichment score” 0.283.
For `F11C`, “normalised enrichment score” read -0.0491.
`E10V` — result for “normalised enrichment score”: 0.077.
`D12E` — result for “normalised enrichment score”: 0.578.
For `L8Q`, “normalised enrichment score” read 0.169.
Under “normalised enrichment score”, `S2T` is recorded as 0.63.
Under “normalised enrichment score”, `P1A` is recorded as 0.262.
For `I3W`, “normalised enrichment score” read 0.412.
Under “normalised enrichment score”, `K4A` is recorded as 0.38.
For `N6S`, “normalised enrichment score” read 0.667.

Block 4 — method: protein binding microarray; molecule type: double-stranded DNA, one strand shown; medium: in vitro; concentration: not given; relative to: not given; direction: higher = stronger binding
Target: Histone acetyltransferase KAT6A, both winged helices, GST fusion (KAT6A, Homo sapiens, UniProt Q92794, residues 1-181)
Notes: 8-mer, flanks averaged, mean of 2 arrays, mostly near background
Residues (chain): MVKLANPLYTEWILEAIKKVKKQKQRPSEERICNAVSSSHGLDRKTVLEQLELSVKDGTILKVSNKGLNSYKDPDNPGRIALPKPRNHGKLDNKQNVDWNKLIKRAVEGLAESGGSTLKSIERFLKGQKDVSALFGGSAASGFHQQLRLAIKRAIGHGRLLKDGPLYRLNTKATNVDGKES
The E-score of `CAACTAAA` is reported as -0.109.
`GATGCCAC` gave an E-score of -0.111.
With `GGTACCAA` the E-score was -0.0938.
`ATTTTGCC` gave an E-score of 0.00717.
With `CAACATCG` the E-score was 0.176.
With `AACTGAAG` the E-score was -0.0561.
`TAGGTGAA` has an E-score of -0.121.
With `CCTACACA` the E-score was -0.138.
The E-score of `ATGGTGGA` is reported as -0.25.
`AAACGGAC` has an E-score of 0.0669.
`CCTCTCGA` gave an E-score of -0.108.
`GCGCCCAA` has an E-score of 0.167.
`ACTCTGCA` has an E-score of -0.2.
`ACCCGGAT` gave an E-score of -0.0315.
With `GATGTGGA` the E-score was 0.0215.
`GCGTAAAA` gave an E-score of 0.142.
`TGGGTCAA` has an E-score of -0.164.

A few entries again (block 2):
For `TCAGGTATTTTTTTCTAACTGTGCTAG`, “fitted relative affinity” read 0.57 z-score.
For `GGTCTTCTGGGCTGTTTAGTCGTGCTA`, “fitted relative affinity” read -0.276 z-score.
For `TTAGATCTCAGTATCGATGAGTGCTAG`, “fitted relative affinity” read 3.71 z-score.
`TTATGTATCCTTTTCCTTTAGTGCTAG` — result for “fitted relative affinity”: 1.13 z-score.
